Results from different studies.
U2AF2: U2AF2 148-342 (Homo sapiens, UniProt P26368)
UniProt P26368, sequence (whole entry, looked up): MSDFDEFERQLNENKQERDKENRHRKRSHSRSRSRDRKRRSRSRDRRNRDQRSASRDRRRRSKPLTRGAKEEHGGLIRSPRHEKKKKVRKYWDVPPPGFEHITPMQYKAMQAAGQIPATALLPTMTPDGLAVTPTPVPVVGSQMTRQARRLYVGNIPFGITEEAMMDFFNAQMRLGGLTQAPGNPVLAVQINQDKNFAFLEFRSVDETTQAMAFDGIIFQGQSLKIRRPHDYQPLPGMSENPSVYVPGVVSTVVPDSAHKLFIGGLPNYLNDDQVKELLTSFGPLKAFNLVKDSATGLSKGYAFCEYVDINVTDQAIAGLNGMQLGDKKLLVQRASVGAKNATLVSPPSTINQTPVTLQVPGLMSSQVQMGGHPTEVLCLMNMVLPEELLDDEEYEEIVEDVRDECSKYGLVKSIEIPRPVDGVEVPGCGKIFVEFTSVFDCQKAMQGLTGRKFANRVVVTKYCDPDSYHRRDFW
B1: human septin-9; sequence looked up; chain MKKSYSGGTRTSSGRLRRLGDSSGPALKRSFEVEEVETPNSTPPRRVQTPLLRATVASSTQKFQDLGVKNSEPSARHVDSLSQRSPKASLRRVELSGPKAAEPVSRRTELSIDISSKQVENAGAIGPSRFGLKRAEVLGHKTPEPAPRRTEITIVKPQESAHRRMEPPASKVPEVPTAPATDAAPKRVEIQMPKPAEAPTAPSPAQTLENSEPAPVSQLQSRLEPKPQPPVAEATPRSQEATEAAPSCVGDMADTPRDAGLKQAPASRNEKAPVDFGYVGIDSILEQMRRKAMKQGFEFNIMVVGQSGLGKSTLINTLFKSKISRKSVQPTSEERIPKTIEIKSITHDIEEKGVRMKLTVIDTPGFGDHINNENCWQPIMKFINDQYEKYLQEEVNINRKKRIPDTRVHCCLYFIPATGHSLRPLDIEFMKRLSKVVNIVPVIAKADTLTLEERVHFKQRITADLLSNGIDVYPQKEFDEDSEDRLVNEKFREMIPFAVVGSDHEYQVNGKRILGRKTKWGTIEVENTTHCEFAYLRDLLIRTHMQNIKDITSSIHFEAYRVKRLNEGSSAMANGMEEKEPEAPEM
B2: palladin, human; sequence looked up; chain MSGTSSHESFYDSLSDMQEESKNTDFFPGLSAFLSQEEINKSLDLARRAIADSETEDFDSEKEISQIFSTSPASLCEHPSHKETKLGEHASRRPQDNRSTPVQPLAEKQTKSISSPVSKRKPAMSPLLTRPSYIRSLRKAEKRGAKTPSTNVKPKTPHQRKGGPQSQLCDKAANLIEELTSIFKAAKPRNRSPNGESSSPDSGYLSPKNQPSALLSASASQSPMEDQGEMEREVKSPGARHCYQDNQDLAVPHNRKSHPQPHSALHFPAAPRFIQKLRSQEVAEGSRVYLECRVTGNPTPRVRWFCEGKELHNTPDIQIHCEGGDLHTLIIAEAFEDDTGRYTCLATNPSGSDTTSAEVFIEGASSTDSDSESLAFKSRAGAMPQAQKKTTSVSLTIGSSSPKTGVTTAVIQPLSVPVQQVHSPTSYLCRPDGTTTAYFPPVFTKELQNTAVAEGQVVVLECRVRGAPPLQVQWFRQGSEIQDSPDFRILQKKPRSTAEPEEICTLVIAETFPEDAGIFTCSARNDYGSATSTAQLVVTSANTENCSYESMGESNNDHFQHFPPPPPILETSSLELASKKPSEIQQVNNPELGLSRAALQMQFNAAERETNGVHPSRGVNGLINGKANSNKSLPTPAVLLSPTKEPPPLLAKPKLDPLKLQQLQNQIRLEQEAGARQPPPAPRSAPPSPPFPPPPAFPELAACTPPASPEPMSALASRSAPAMQSSGSFNYARPKQFIAAQNLGPASGHGTPASSPSSSSLPSPMSPTPRQFGRAPVPPFAQPFGAEPEAPWGSSSPSPPPPPPPVFSPTAAFPVPDVFPLPPPPPPLPSPGQASHCSSPATRFGHSQTPAAFLSALLPSQPPPAAVNALGLPKGVTPAGFPKKASRTARIASDEEIQGTKDAVIQDLERKLRFKEDLLNNGQPRLTYEERMARRLLGADSATVFNIQEPEEETANQEYKVSSCEQRLISEIEYRLERSPVDESGDEVQYGDVPVENGMAPFFEMKLKHYKIFEGMPVTFTCRVAGNPKPKIYWFKDGKQISPKSDHYTIQRDLDGTCSLHTTASTLDDDGNYTIMAANPQGRISCTGRLMVQAVNQRGRSPRSPSGHPHVRRPRSRSRDSGDENEPIQERFFRPHFLQAPGDLTVQEGKLCRMDCKVSGLPTPDLSWQLDGKPVRPDSAHKMLVRENGVHSLIIEPVTSRDAGIYTCIATNRAGQNSFSLELVVAAKEAHKPPVFIEKLQNTGVADGYPVRLECRVLGVPPPQIFWKKENESLTHSTDRVSMHQDNHGYICLLIQGATKEDAGWYTVSAKNEAGIVSCTARLDVYTQWHQQSQSTKPKKVRPSASRYAALSDQGLDIKAAFQPEANPSHLTLNTALVESEDL
B3: Reticulon-4 (human); sequence looked up; chain MEDLDQSPLVSSSDSPPRPQPAFKYQFVREPEDEEEEEEEEEEDEDEDLEELEVLERKPAAGLSAAPVPTAPAAGAPLMDFGNDFVPPAPRGPLPAAPPVAPERQPSWDPSPVSSTVPAPSPLSAAAVSPSKLPEDDEPPARPPPPPPASVSPQAEPVWTPPAPAPAAPPSTPAAPKRRGSSGSVDETLFALPAASEPVIRSSAENMDLKEQPGNTISAGQEDFPSVLLETAASLPSLSPLSAASFKEHEYLGNLSTVLPTEGTLQENVSEASKEVSEKAKTLLIDRDLTEFSELEYSEMGSSFSVSPKAESAVIVANPREEIIVKNKDEEEKLVSNNILHNQQELPTALTKLVKEDEVVSSEKAKDSFNEKRVAVEAPMREEYADFKPFERVWEVKDSKEDSDMLAAGGKIESNLESKVDKKCFADSLEQTNHEKDSESSNDDTSFPSTPEGIKDRSGAYITCAPFNPAATESIATNIFPLLGDPTSENKTDEKKIEEKKAQIVTEKNTSTKTSNPFLVAAQDSETDYVTTDNLTKVTEEVVANMPEGLTPDLVQEACESELNEVTGTKIAYETKMDLVQTSEVMQESLYPAAQLCPSFEESEATPSPVLPDIVMEAPLNSAVPSAGASVIQPSSSPLEASSVNYESIKHEPENPPPYEEAMSVSLKKVSGIKEEIKEPENINAALQETEAPYISIACDLIKETKLSAEPAPDFSDYSEMAKVEQPVPDHSELVEDSSPDSEPVDLFSDDSIPDVPQKQDETVMLVKESLTETSFESMIEYENKEKLSALPPEGGKPYLESFKLSLDNTKDTLLPDEVSTLSKKEKIPLQMEELSTAVYSNDDLFISKEAQIRETETFSDSSPIEIIDEFPTLISSKTDSFSKLAREYTDLEVSHKSEIANAPDGAGSLPCTELPHDLSLKNIQPKVEEKISFSDDFSKNGSATSKVLLLPPDVSALATQAEIESIVKPKVLVKEAEKKLPSDTEKEDRSPSAIFSAELSKTSVVDLLYWRDIKKTGVVFGASLFLLLSLTVFSIVSVTAYIALALLSVTISFRIYKGVIQAIQKSDEGHPFRAYLESEVAISEELVQKYSNSALGHVNCTIKELRRLFLVDDLVDSLKFAVLMWVFTYVGALFNGLTLLILALISLFSVPVIYERHQAQIDHYLGLANKNVKDAMAKIQAKIPGLKRKAE

Substance | target or system | assay | system | setting | how to read | endpoint | result
B1 (human septin-9) | PP6C (human) | co-immunoprecipitation, IP-MS | CYB5R4 knockout cells | concentration not given | baseline: CYB5R4 knockout over parental | log2 fold change | -0.89
ACUCUUUAA (ssRNA) | U2AF2 | sequencing of bound RNA | RNA | motif only | – | Kd | 2.44 µM
B2 (palladin, human) | CYB5R4 knockout human cells | PP4 interaction, 3xFLAG-PP4C IP-MS | – | concentration not given | baseline: CYB5R4 KO over parental | log2 fold change | -1.13
heparin sodium | – | – | human | intravenous infusion, 8 IU/kg/h, day 1 to 6 | – | aPTT time to Emax | 84 h
colistin | Pseudomonas aeruginosa | – | PA2011 PER-producing isolate | – | – | MIC | 0.5 µg/mL
AUUUUCUAA (ssRNA) | U2AF2 | sequencing of bound RNA | RNA | motif only | – | Kd | 9.21 µM
colistin | Klebsiella pneumoniae | – | clinical isolate RKI 544/13 | – | – | MIC | 16 µg/mL
TASPAKETSF | construct, MBP fusion, human SCRIB, PDZ 3-4 | automated holdup | peptide, purified PDZ protein | concentration not given, unit not given | baseline: biotin control resin, higher = stronger binding | binding intensity | 0.677
Peginesatide | UT7/EPO | tyrosine phosphorylation, LC-MS/MS phosphoproteomics, trypsin, item: GAB1 tyrosine 659 | – | 10 nM, 15 min, with: 10 U/mL EPO | baseline: vehicle | phosphorylation level | 84.6 fold
VMRLQSETSV | construct, MBP fusion, human SCRIB, PDZ 3-4 | automated holdup | peptide, crude extract | concentration not given, corrected by standard peak, unit not given | baseline: biotin control resin, higher = stronger binding | binding intensity | 0.488
maraviroc | – | qPCR | HIV-infected mice, frontal cortex | i.p., 120 mg/kg twice daily, 3 weeks post infection | baseline: HIV-infected untreated mice, decrease | mRNA level | 1.83 fold
human AHSA1 | PP6C (human) | co-immunoprecipitation, IP-MS | CYB5R4 knockout cells | concentration not given | baseline: CYB5R4 knockout over parental | log2 fold change | 1.27
GSGAGIATEV | construct, MBP fusion, human SCRIB, PDZ 3-4 | automated holdup | peptide, crude extract | concentration not given, corrected by standard peak, unit not given | baseline: biotin control resin, higher = stronger binding | binding intensity | 0.0187
B3 (Reticulon-4) | CYB5R4 knockout human cells | PP4 interaction, 3xFLAG-PP4C IP-MS | – | concentration not given | baseline: CYB5R4 KO over parental | log2 fold change | -0.046
epoetin alfa | UT7/EPO | microarray, item: RAB11FIP1 mRNA (probe set 225177_at) | – | 5 U/mL, 90 min | baseline: vehicle | mRNA level | 3.6 fold
human IGHG1 | PP6C (human) | co-immunoprecipitation, IP-MS | CYB5R4 knockout cells | concentration not given | baseline: CYB5R4 knockout over parental | log2 fold change | -2.74
GSGAGICTIV | construct, MBP fusion, human SCRIB, PDZ 3-4 | automated holdup | peptide, purified PDZ protein | concentration not given, unit not given | baseline: biotin control resin, higher = stronger binding | binding intensity | -0.0437
